Measurements pooled from the literature.
Numbered parts are unrelated; each lists some results of a single study.

Set 1
Target: RING finger protein unkempt homolog, zinc fingers 1-6, GST-SBP tag (UNK, Homo sapiens, UniProt Q9C0B0, residues 30-357)
UniProt Q9C0B0, sequence (30-357, looked up): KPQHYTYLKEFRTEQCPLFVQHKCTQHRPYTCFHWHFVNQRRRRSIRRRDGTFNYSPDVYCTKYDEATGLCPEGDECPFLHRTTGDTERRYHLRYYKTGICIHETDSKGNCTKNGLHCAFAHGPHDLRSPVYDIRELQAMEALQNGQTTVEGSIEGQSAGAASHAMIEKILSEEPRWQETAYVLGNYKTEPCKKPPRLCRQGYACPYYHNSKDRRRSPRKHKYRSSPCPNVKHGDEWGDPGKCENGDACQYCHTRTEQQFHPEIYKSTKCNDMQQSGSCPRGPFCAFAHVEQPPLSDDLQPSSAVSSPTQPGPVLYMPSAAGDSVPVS
Method: RNA Bind-n-Seq
Molecule type: RNA
Matrix: in vitro
Concentration: not given
Setting: RNA with constant flanks, human-mouse chimeric sites, ends assumed
Reference: input RNA pool
Direction: higher = stronger binding
Endpoint: bound/input enrichment
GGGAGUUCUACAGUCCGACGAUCCGGAGCCCUCCUCUCCCACAGGCCCAAGAUAUAACCCACCAGUGCCUUUUGUCUUCCUGUCAGCUCUAAUCAAUCAUGCCCUGCCUUCACGCCCACACCAAGUGCCCAAAGUGGGGAGGGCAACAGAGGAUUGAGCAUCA: 0.309 ratio
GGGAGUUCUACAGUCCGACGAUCGGACAUCUGUCAAAUUGUAUUUCCCGUGUGAAACAAGUGAACACUCUGAUACACUUCAUCUGCUUGUACAUCUGUAUUUGUAUAAUAUGUAAAUAUGUUAAUCCAAGCAAUGUGUCACUUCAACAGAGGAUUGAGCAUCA: 0.198 ratio
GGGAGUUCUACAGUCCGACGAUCGUACUGCAGCAGCAGGGAAAACUGCAGGAAGCUCUGAUGCACUAUAAGGAGGCUAUUCGAAUCAGUCCUACCUUUGCUGAUGCCUACUCUAAUAUGGGAAACACUCUAAAGGAGAUGCAGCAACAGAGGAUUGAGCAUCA: 0.193 ratio
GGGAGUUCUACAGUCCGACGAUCCACAGAGCAGCACCUACCCCCUCCUCCUUUCCACACCUGCAAACUCUUUUACUUGGGCUGCAUAGUUAGUGUAAUUACAUCUCAGCUUUUGAGGGCUCUGUGGCAAAUUCCCGGAUUAAACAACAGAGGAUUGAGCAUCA: 3.92 ratio
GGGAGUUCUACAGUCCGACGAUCGUUCGGCUCUGGGAUCAUGCCACAAUGACAGAAGUGAAAUCUCUGAAUUUUAAUAUGUCUGUUAGUAGUAUGGAAUAUAUUCCUGAAGGAGAGAUUUUGGUUAUUACUUAUGGACGAUCUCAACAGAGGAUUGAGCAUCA: 0.705 ratio
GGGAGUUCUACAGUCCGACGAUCGUGUCCUGCUUUCAACUUAAAUCACUGAGGCAUCUCUACUAUUCUGUGAGCAUCAGGACUGUAGCGCUGUGUCACCACAUGAGAGUUGUUAAGCAGCCUUUCUGUGGAGGGUGGGAAUGACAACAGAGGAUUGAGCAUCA: 0.117 ratio
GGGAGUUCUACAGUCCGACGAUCUUAAUCCCCUUCGUUGCUCCCCCACUUCUCAUGGUAAUAACAAAGUCUUAUAUCCCCGUCCUAGCUUUCACUCAGAUGGCUUAUGGAGCCGGUUUCCUAGCUUUCUUGGGAGGGAUCAGACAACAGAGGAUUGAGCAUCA: 0.451 ratio
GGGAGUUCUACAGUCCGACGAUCCUGUGUGUGCUGAAUAAAUGGCUUGUAAAGAAGUUUUCCAAGUUGUAAACCCAUGCUUCCCUUAGAGUUGCUGCAAAAUGUUCUUCCUGAUAUUGAUUUUAUUUGUUAACUGAAGGUCUCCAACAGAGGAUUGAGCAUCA: 0.624 ratio
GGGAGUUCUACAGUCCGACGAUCAAAUCAUGUGUGUCCAAUAUUGAAAGUGCUUUAUCUACACUCCAGUAUGUAAGCAGUAUAGUAGUUUCUUUAGAGAAUAGGUCAGCCAUUGUAAAGUACAAUGCAAGCUUAGUCACUCCACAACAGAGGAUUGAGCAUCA: 8.07 ratio
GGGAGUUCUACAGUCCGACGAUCGUGACUGGUGUUAAGAUUUACCCUCAGCAAAGAAGUGCAGUAGUCACCAUAAUUCCAUCUGUGGUGAAUGCCAAUCAGAUUGUGGAGCUGGUCCCAGACCUCAGUUUAGACAUGGGAACUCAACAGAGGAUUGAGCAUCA: 0.291 ratio
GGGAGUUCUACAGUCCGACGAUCCCCCAAUACCAUUUGCAGGUCUGGAACUGCACUCUCUUUUUUAAAAAACAUGUAUACAUUUUAGGGCUGUAGAUUUACUUUCCUAUUUUUGUUUUUCAUUGCUGACUUUUGAGCACAGAACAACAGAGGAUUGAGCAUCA: 1.71 ratio

Set 2
Target: RNA binding protein fox-1 homolog 2, RRM domain, GST-SBP tag (RBFOX2, Homo sapiens, UniProt O43251-10, residues 100-194)
Method: RNA Bind-n-Seq
Molecule type: RNA
Matrix: in vitro
Concentration: 365 nM
Setting: natural RNA segment, single round, ends assumed
Reference: no-protein control
Direction: higher = stronger binding
Endpoint: RBNS enrichment (R)
Construct (chain): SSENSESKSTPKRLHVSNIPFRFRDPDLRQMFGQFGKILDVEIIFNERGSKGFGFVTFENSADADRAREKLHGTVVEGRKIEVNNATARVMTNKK
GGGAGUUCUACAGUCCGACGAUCCUGUGGUGGUUGUGAUCCCUAGGUCUUGGGAGCUCUUGGAGGUGUCUGUAUCAGUGGAUUUCCCAUCCCCUGUGGGAAAUUAGUAGGCUCAUUUACUGUUUUAGGUCUAGUGGAAUUCUCGGGUGCCAA: 1.5
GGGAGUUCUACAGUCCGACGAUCCCUGCUGAACGGGGCUGCAAGGCCAAGGCUCCUUAAGGGAGGUCCUUACCUCCAAUCCAGUUAGAGCAAUAACCACUUUUUAAAUGUAAAAUAAAGACAAAUGAAAAGGCUGGAAUUCUCGGGUGCCAA: 0.226
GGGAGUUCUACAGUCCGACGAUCUACUCACUACUAAACUCUACCAAGAAUGGAAACAAAGAAUAUUUUCUGAAGAUUUUUUUGAAGAUUAAUUUAUACCCUAUAAAAUAAAACUUGUUAGCUUCGAUGAAGUCUGGAAUUCUCGGGUGCCAA: 0.792
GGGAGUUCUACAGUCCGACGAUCUCAAGAUUAUGAAACUUUGCUGUGGGCCCUGCCUUUCCUUCACUUCUUCCUGUUCACCCUGGUGGUGUAUGGGUGAGGUGGGAAGGUGACCCCCCCCCCAAAUAUAUAUCUGGAAUUCUCGGGUGCCAA: 0.285
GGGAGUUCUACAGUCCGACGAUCCUACCCACCUCAGCCUCCUGUGUAGCUGGGAUUAUAGAUUGGAGCCACCAUGCCCAGCUCAGAGGGUUGUUCUCCUAGACUGACCCUGAUCAGUCUAAGAUGGGUGGGGAUGGAAUUCUCGGGUGCCAA: 0.366
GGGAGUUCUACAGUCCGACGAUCCGCUGUCAACAGAAGUUAUGGUUUGUAUGUGAGCCCUUUCCUCUCAACUGCUUUACUAAGGAGCAAUGUUGUCCUGCGCCGGCACACUCAAGAUGUAUCUGAGUAGCUGCUGGAAUUCUCGGGUGCCAA: 0.368
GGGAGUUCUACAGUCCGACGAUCGAAGCCUACUUUCCUGAGGCAGCAGCACUGCCACUGGAGCCUCCCGACAGGGCGUGCCUCUCCCACUGCAGCCCCUGUGGUGGUGGCUGCCUAAUUCAGUUCCAGCUCUCUGGAAUUCUCGGGUGCCAA: 0.226
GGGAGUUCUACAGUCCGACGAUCCAGGCUGGACCAAGGGUGGGCCUGGCCACCUUCUCUCACUUUGCUGGGGUCUCCUGCUUCAAGCAGGCUUCUCCCACUCCAAUCCCCUGCCCCAUCUCCCCAUAGCCUGAUGGAAUUCUCGGGUGCCAA: 0.384
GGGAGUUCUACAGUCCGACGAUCCCCUACAGAACUCCUCAAGAAAACAGAGAUCAUUUGGCUAGAGAUUGUCUGAGUGACUCCAAGCUACUCACUGUAUUGGACGGGAGUAGUAAUUUAUUUUAAAGAUAAAGUGGAAUUCUCGGGUGCCAA: 0.939
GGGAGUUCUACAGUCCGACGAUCAAGUAGCUAGAGCCAUGGAAGUACAGUAUGAAUUAAAAAGAAAAAAGUAUUGAACUACAAUAAUAAAUGGUGUGCGUGUUUAUUGCUUGAUCUAUGAAUGCUCGUCACCUUGGAAUUCUCGGGUGCCAA: 1.89
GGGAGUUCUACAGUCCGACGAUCGAUGGAAAGGGAAUGUUCUGCUGGUUCUACCCUGUUUGUUGUGUCUUGCUAUACAGAAAAACCACAUUUCUUUUAUAUACUGUACGUGGGCAUAUCUUGUUGUUCAGUUUUGGAAUUCUCGGGUGCCAA: 3.61
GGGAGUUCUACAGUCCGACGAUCUAUCCCCAGCCCAGUCUUCCUCCUCCAUCCUUAAGCAGUAUAAAUGCUAUGUGCCCUCUUCACUUAGAGCGAGCUUUAGUGUGUCAAGGGACUCUGCUUUCCUGUACUUCUGGAAUUCUCGGGUGCCAA: 0.408

Set 3
Substance: PhoQ, residues 284 288 289 292 302 303 GANMMA
Method: Sort-seq
Item: YFP reporter
Matrix: E. coli
Setting: PhoQ-PhoP variant library
With: 10 µM Mg2+
Reference: high Mg2+ state
Direction: higher = stronger signaling
Endpoint: fold induction
PhoP, residues 12 14 15 18 19 QYFSL (Escherichia coli, UniProt P23836): 2.76
PhoP, residues 12 14 15 18 19 NYFRM (Escherichia coli, UniProt P23836): 3.93
PhoP, residues 12 14 15 18 19 TQALL (Escherichia coli, UniProt P23836): 6.76

Set 4
Target: Histone acetyltransferase KAT6A, winged helix 2, GST fusion (KAT6A, Homo sapiens, UniProt Q92794, residues 85-181)
Method: protein binding microarray
Molecule type: double-stranded DNA, one strand shown
Matrix: in vitro
Concentration: not given
Setting: 8-mer, flanks averaged, mean of 2 arrays, mostly near background
Reference: not given
Direction: higher = stronger binding
Endpoint: E-score
Residues (chain): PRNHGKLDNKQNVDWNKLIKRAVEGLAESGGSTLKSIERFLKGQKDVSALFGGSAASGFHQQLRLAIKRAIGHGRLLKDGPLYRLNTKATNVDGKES
AAAGCTTT: -0.269
ATCGGTAG: 0.0697
CGTGGAAC: 0.0184
ATTAGGCC: -0.065
ACCTTCAG: -0.00604
CTGGTATC: 0.00421
ATTATTGG: -0.086
GCTTGTCC: 0.108
GACGGCTA: 0.00639
AAGGAGTA: -0.19
TTCCCGAA: 0.085
AGGTCGGG: 0.0862
GCGGAGCC: 0.169

Repeated from above (set 4):
GCGGAGCC: 0.169
ACCTTCAG: -0.00604
AAAGCTTT: -0.269
